Experimental data gathered from unrelated publications.
Compare with care: the assays were run in different laboratories. Several values in a cell are separate wells, animals, samples, runs or records. Numbers after ± are the reported error.

C=C(C)[C@H]1CN[C@H](C(=O)O)[C@H]1CC(=O)O — lowest effective concentration (hiPSC glutamatergic neurons; network burst frequency, multi-electrode array; 2 h): 1 µM
COc1c(C)c2c(c(O)c1C/C=C(\C)CCC(=O)O)C(=O)OC2 — IC50 (SF-295; cell proliferation; brain cancer): 0.525 µM
COc1ccc2c(c1)[nH]c1c(C)nccc12 — methylation reduction (DU-145; bisulfite pyrosequencing, measured: RASSF1A promoter CpG site 20; concentration not given; baseline: vehicle): 1.64%
Cc1cc(C(C)(C)c2ccc(O)c(C)c2)ccc1O — G2 phase cells (HepG2 spheroids; Hoechst flow cytometry; 40 µM, 24 h): 19.8 ± 5.54%
O=c1cc(-c2ccc(O)cc2)oc2cc(O)cc(O)c12 — neurite branch number (SH-SY5Y Aβ-GFP cells, scrambled shRNA; 5 µM): 1.8 to 2.1
Oc1ccc(C2(c3ccc(O)cc3)c3ccccc3-c3ccccc32)cc1 — inhibition (HepG2 spheroids; cell proliferation, flow cytometry, measured: Ki67; 40 µM, 24 h; baseline: solvent control): 15.4%
CC(=O)O[C@H]1C[C@H](O[C@H]2[C@@H](O)C[C@H](O[C@H]3[C@@H](O)C[C@H](O[C@H]4CC[C@@]5(C)[C@H](CC[C@@H]6[C@@H]5C[C@@H](O)[C@]5(C)[C@@H](C7=CC(=O)OC7)CC[C@]65O)C4)O[C@@H]3C)O[C@@H]2C)O[C@H](C)[C@H]1O[C@@H]1O[C@H](CO)[C@@H](O)[C@H](O)[C@H]1O — MyBP-C level (MYBPC3 iPSC cardiomyocytes; plate-normalised; concentration not given, 24 h, hit retest): 8.9%
C/C=C(/C)C(=O)O[C@H]1C(C)=C2[C@H]([C@@H]1OC(=O)CCCCCCC)[C@@](C)(OC(C)=O)C[C@H](OC(=O)CCC)[C@@]1(O)[C@H]2OC(=O)[C@@]1(C)O — normalized enrichment score (HEK-293T; RNA-seq GSEA, measured: Hallmark MYC targets V1; 500 nM, 6 h; direction not given): 0.91
Cc1cc(O)ccc1Cl — EC10 (SH-SY5Y; neurite outgrowth inhibition, phase-contrast imaging; freely dissolved concentration): 33.1 µM
CC(=O)O[C@H]1CC[C@]2(C=O)[C@H]3CC[C@]4(C)[C@@H](C5=CC(=O)OC5)CC[C@]4(O)[C@@H]3CC[C@]2(O)C1 — MyBP-C level (MYBPC3 iPSC cardiomyocytes; plate-normalised; concentration not given, 24 h, hit retest): 9.1%
CNC(=O)Oc1cccc2ccccc12 — EC10 (SH-SY5Y; neurite outgrowth inhibition, phase-contrast imaging; 24 h, nominal concentration): 3.42 µM
COc1cc(CCC[P+](c2ccccc2)(c2ccccc2)c2ccccc2)c(OC)c2c1OCO2.[I-] — GI50 (RPMI-8226; SRB): -6.55 log M
Oc1cc(Cl)ccc1Oc1ccc(Cl)cc1Cl — MyBP-C level (MYBPC3 iPSC cardiomyocytes; plate-normalised; concentration not given, 24 h, hit retest): 1.1%
Oc1cc(Cl)ccc1Oc1ccc(Cl)cc1Cl — point of departure (HepG2; high content imaging, measured: nuclear size; 24 h, distribution mode 2): 32.4 µM and 33.1 µM
O=S(=O)(Nc1ccc(-c2nc3cc(NS(=O)(=O)c4cccc(C(F)(F)F)c4)ccc3o2)cc1)c1cccc(C(F)(F)F)c1 — EC50 (HT-29 colorectal cancer; 48 h): 19 µM
COc1cc(OC)c(C=C2C(O)=Nc3ccccc32)c(OC)c1 — fold change in IC50 (HD-MB03; with: ribociclib 5 µM; baseline: ribociclib over DMSO): 2.2
O=C1N(Cc2ccccc2Cl)c2ccccc2C12NN=C(c1ccccc1)S2 (stereo not drawn) — fold change (MDA-MB-468; gene expression array, measured: HILPDA mRNA; 10 µM, 12 h; baseline: untreated, up): 1.79
Nc1ncc(-c2nc(N3CCOCC3)nc(N3CCOCC3)n2)c(C(F)F)n1 — GI50 (BXPC-3; 72 h): 0.097 µM
O=S(=O)(c1ccc(O)cc1)c1ccc(O)cc1 — G2 phase cells (HepG2 spheroids; Hoechst flow cytometry; 10 µM, 24 h): 18.6 ± 3.76%
O=C1CCP(=S)(c2ccccc2)CC1 — early apoptotic cells (SW480; annexin V/PI flow cytometry; IC50, 72 h): 0.9%
Cn1nccc1Nc1nccc(-c2ccn([C@H](CO)c3ccc(Cl)c(F)c3)c(=O)c2)n1 — PI-positive cells (HCT116; IncuCyte; concentration not given, 12 (unit not given)): 4.25 count and 2.83 count and 3.25 count
CN1CCN(C2(CNC3CCN(c4cccc(-c5cc6cc(F)ccc6[nH]5)c4)CC3)CCC2)CC1 — GI50 (OVCAR-8): 2.02 µM
COc1c(CCC[P+](c2ccccc2)(c2ccccc2)c2ccccc2)cc2c(c1OC)OCO2.[I-] — LC50 (SF-539; SRB): > -4 log M
Cc1nn(-c2nc3c(F)cc(F)cc3s2)c(O)c1C(c1ccc(C(F)(F)F)cc1)c1c(C)nn(-c2nc3c(F)cc(F)cc3s2)c1O — viability (RAW-ISG; CCK-8; 50 µM): 67.8% and 73% and 64.1% and 42.9% and 39%
Cn1cc2cc(C(F)(F)c3nnc4ccc(-c5cnn(C6CC6)c5)nn34)c(F)cc2n1 — late apoptotic cells (MKN-45; annexin V/PI flow cytometry; 2 nM, 48 h): 7.35% and 12.4% and 14.2%
CCN(CC)c1ccc(C=NNC(=O)CSc2nc3ccccc3c(=O)n2Cc2ccc(S(N)(=O)=O)cc2)c(O)c1 — CC50 (SF-539; NCI five-dose screen): > 100 µM
O=c1cc(-c2ccccc2)oc2c(O)c(O)ccc12 — neurite process number (SH-SY5Y Aβ-GFP cells, TRKB shRNA; 5 µM): 3.3
O=C1CCP(=[Se])(c2ccccc2)CC1 — selectivity index (SW480; MTT; 72 h; baseline: IC50 HaCaT over IC50 SW480): 1.1
CC(C)N1CCC(NC2CCN(c3cccc(-c4cc5cc(F)ccc5[nH]4)c3)CC2)CC1 — GI50 (SF-539): 1.73 µM
Cn1cncc1C1=CN(c2ncnc3[nH]cnc23)CCS1 — CC50 (RPMI-8226; leukemia): > 200 µM
OC(c1ccc(-c2ccc(CN3CCN(Cc4ccncc4)CC3)cc2)c(F)c1)(C(F)(F)F)C(F)(F)F — inhibition (mouse Th17 cells; qRT-PCR, measured: Il17a mRNA; 100 nM, 4 days): 50%
C=CC(=O)Nc1cc(Nc2nccc(-c3cn(C)c4ccccc34)n2)c(OC)cc1N(C)CCN(C)C — GI50 (NCI-H1975 (EGFR L858R/T790M); cell growth, CellTiter-Glo; 72 h): 0.343 µM
C[C@@H]1C[C@@H]([C@H](O)CC2CC(=O)NC(=O)C2)C(=O)[C@@H](C)C1 — Emax (LDR; silenced CMV-GFP reporter derepression, qHTS): 32%
CN1CC[C@@]2(C)c3cc(OC(=O)Nc4ccccc4)ccc3N(C)[C@@H]12 — α-synuclein protein decrease (mouse primary cortical neurons; Western blot; up to 1 µM): ≤ 70%
O=c1[nH]sc2cc(F)ccc12 — efficacy (LDR; silenced CMV-GFP reporter derepression, qHTS): 29%
CC(c1ccccc1)(c1ccc(O)cc1)c1ccc(O)cc1 — G1 phase cells (HepG2 spheroids; Hoechst flow cytometry; 0.1 µM, 24 h): 73.6 ± 4.83%
C[C@]12CC[C@H](O)C[C@H]1CC[C@@H]1[C@@H]2CC[C@]2(C)[C@@H](c3ccc(=O)oc3)CC[C@]12O — ERE reporter activity (MCF7; luciferase; 10 nM, unit not given; baseline: untreated): 1.75 and 1.25 and 1.34
O=c1c(O)c(-c2ccc(O)c(O)c2)oc2cc(O)cc(O)c12 — neurite length (SH-SY5Y Aβ-GFP cells, scrambled shRNA; 5 µM): 32.5 to 36.5 µm
Nc1ncnc2c1ncn2[C@@H]1O[C@@H]2COP(=O)(O)O[C@H]3[C@@H](O)[C@H](n4cnc5c(=O)[nH]cnc54)O[C@@H]3COP(=O)(O)O[C@H]2[C@H]1O — fold enrichment (HFF-1; RNA sequencing, measured: Reactome Immune System; upregulated pathways; baseline: mock): 2.85
